Assay results collected from several papers.
A part holds a random share of what one study measured. Positions count from the first letter of the parent shown.

Block 1 — technique: aptamer microarray, sandwich; form: DNA with 2'F-ANA; matrix: in vitro; tested at: 200 nM; added: Cy3 exosite-II aptamer, 400 nM; reading: higher = stronger binding; sequence: GGTTGGTGTGGTTGG
Target: Prothrombin, mature alpha-thrombin (F2, Homo sapiens, UniProt P00734)
Notes: whole 15-mer aptamer, many near background
Under “mean fluorescence intensity”, `2'F-ANA at 3 4 6 10 14` is recorded as 180 a.u.
For `2'F-ANA at 1 3 6 11 14`, “mean fluorescence intensity” read 73 a.u.
Under “mean fluorescence intensity”, `2'F-ANA at 1 4 5 7 8 10 14` is recorded as 46.4 a.u.
`2'F-ANA at 1 5 6 8 10 11 12 13 14 15` — result for “mean fluorescence intensity”: 76.6 a.u.
`2'F-ANA at 1 2 4 5 6 15`: “mean fluorescence intensity” 55.2 a.u.
`2'F-ANA at 1 3 4 6 12 13 15` — result for “mean fluorescence intensity”: 245 a.u.
`2'F-ANA at 1 4 10 11 12 13 14`: “mean fluorescence intensity” 72 a.u.
`2'F-ANA at 2 3 5 6 8 9 10 14 15` — result for “mean fluorescence intensity”: 76.9 a.u.
For `2'F-ANA at 2 4 5 7 8 9 10 11 12 13 15`, “mean fluorescence intensity” read 49.5 a.u.
`2'F-ANA at 4 6 9 10 11 12 13 14 15` — result for “mean fluorescence intensity”: 63.5 a.u.
Under “mean fluorescence intensity”, `2'F-ANA at 3 4 5 6 9 11 14` is recorded as 50 a.u.
For `2'F-ANA at 1 2 5 6 7 10 11 12 15`, “mean fluorescence intensity” read 54 a.u.
For `2'F-ANA at 3 4 5 8 9 10 11 12 13 14 15`, “mean fluorescence intensity” read 58.8 a.u.
For `2'F-ANA at 4 6 7 8 11 13 15`, “mean fluorescence intensity” read 214 a.u.
`2'F-ANA at 2 3 5 6 8 10 11 12` — result for “mean fluorescence intensity”: 58.7 a.u.
`2'F-ANA at 2 5 6 8 10 11 12 14` — result for “mean fluorescence intensity”: 46.5 a.u.
`2'F-ANA at 1 3 9 10 13 14` — result for “mean fluorescence intensity”: 58.5 a.u.
`2'F-ANA at 4 5 6 7 13` — result for “mean fluorescence intensity”: 54.3 a.u.
`2'F-ANA at 1 4 5 6 7 8 9 10 11 12 13 15` — result for “mean fluorescence intensity”: 52.5 a.u.
For `2'F-ANA at 1 2 5 6 7 8 11 12 13`, “mean fluorescence intensity” read 79.1 a.u.
`2'F-ANA at 3 5 7 8 10 14 15`: “mean fluorescence intensity” 106 a.u.
`2'F-ANA at 2 5 6 7 8 13 15`: “mean fluorescence intensity” 87.9 a.u.
`2'F-ANA at 2 4 10 11 12 13 14`: “mean fluorescence intensity” 62.3 a.u.
`2'F-ANA at 4 7 9 11 13`: “mean fluorescence intensity” 183 a.u.
`2'F-ANA at 1 2 5 8` — result for “mean fluorescence intensity”: 64 a.u.

Block 2 — target: CCNB2, cyclin fold, Cln2 fusion (human); technique: yeast growth competition, sequencing; matrix: yeast; notes: weak parent motif; baseline: not given; reading: higher = stronger binding
Starting sequence: CDKN1A docking peptide (human); SKACRRLFGPVDS
`S1A`: “normalised enrichment score” 0.637.
For `G9F`, “normalised enrichment score” read -0.0745.
Under “normalised enrichment score”, `V11G` is recorded as 0.43.
Under “normalised enrichment score”, `R5C` is recorded as -0.123.
Under “normalised enrichment score”, `V11Y` is recorded as 0.479.
`G9M`: “normalised enrichment score” 0.243.
`R5T`: “normalised enrichment score” -0.0559.
For `C4I`, “normalised enrichment score” read 0.24.
`R6N` — result for “normalised enrichment score”: -0.104.
Under “normalised enrichment score”, `V11S` is recorded as -0.0297.
`R5S` — result for “normalised enrichment score”: 0.00732.
For `L7T`, “normalised enrichment score” read 0.774.
`D12S` — result for “normalised enrichment score”: -0.236.
For `D12Q`, “normalised enrichment score” read 0.356.
`L7H` — result for “normalised enrichment score”: 0.51.
Under “normalised enrichment score”, `P10K` is recorded as 0.304.
For `R5V`, “normalised enrichment score” read -0.227.
`F8D`: “normalised enrichment score” 0.0334.
`P10W`: “normalised enrichment score” 0.744.
Under “normalised enrichment score”, `R6Y` is recorded as 0.381.

Block 3 — target: NFE2L1, bZIP domain (human); technique: DHFR protein complementation; matrix: yeast; baseline: wild-type JUN-FOS pair; reading: higher = stronger binding
Notes: single substitutions, most at no-binding floor
Starting sequence: JUN, bZIP domain (human); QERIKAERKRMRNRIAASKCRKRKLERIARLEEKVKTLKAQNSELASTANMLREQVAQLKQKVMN; partner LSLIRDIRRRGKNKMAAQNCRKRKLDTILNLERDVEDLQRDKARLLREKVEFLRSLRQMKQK
With `R30C` the binding fitness was -1.51 natural log.
`L31P` gave a binding fitness of -1.53 natural log.
The binding fitness of `E44Q` is reported as -1.49 natural log.
The binding fitness of `E54Q` is reported as -1.4 natural log.
With `K36L` the binding fitness was -1.46 natural log.
For `L31G`, the binding fitness was -1.44 natural log.
`K39W` gave a binding fitness of -1.54 natural log.
For `Q55D`, the binding fitness was -1.49 natural log.
The binding fitness of `L38G` is reported as -1.48 natural log.
The binding fitness of `A46R` is reported as -1.41 natural log.
`L38R` has a binding fitness of -1.51 natural log.
The binding fitness of `E54V` is reported as -1.41 natural log.
With `L45P` the binding fitness was -1.47 natural log.
The binding fitness of `Q41C` is reported as -1.57 natural log.
The binding fitness of `L45W` is reported as -1.5 natural log.
With `K39V` the binding fitness was -1.42 natural log.
`T48S` has a binding fitness of -1.43 natural log.
`V56S` gave a binding fitness of -1.58 natural log.
The binding fitness of `A57H` is reported as -1.15 natural log.
`K34E` has a binding fitness of -1.44 natural log.
`L52N` gave a binding fitness of -1.43 natural log.
The binding fitness of `Q55L` is reported as -1.54 natural log.
`V56N` has a binding fitness of -1.62 natural log.

Block 4 — technique: protein binding microarray; form: double-stranded DNA, one strand shown; matrix: in vitro; tested at: not given; baseline: not given; reading: higher = stronger binding
Target: Histone acetyltransferase KAT6A, winged helix 1, GST fusion (KAT6A, Homo sapiens, UniProt Q92794, residues 1-85)
Notes: 8-mer, flanks averaged, mean of 2 arrays, mostly near background
Construct (chain): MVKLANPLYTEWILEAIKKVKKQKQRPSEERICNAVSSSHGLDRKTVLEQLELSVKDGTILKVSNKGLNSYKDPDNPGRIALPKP
For `TGACCAAA`, the E-score was -0.0778.
With `AAAACGTT` the E-score was -0.00935.
For `ACTGAGGA`, the E-score was -0.112.
With `AATTGCAC` the E-score was -0.18.
For `AATGTTTG`, the E-score was -0.165.
With `CCTTGTAA` the E-score was -0.104.
The E-score of `GGAACACA` is reported as -0.146.
`AGATAGCA` gave an E-score of -0.215.
`TACGCCGA` gave an E-score of 0.304.
`CTCTGCAG` has an E-score of -0.287.
The E-score of `CTATTTAC` is reported as -0.0499.
The E-score of `GGAGTCTA` is reported as 0.0208.
With `CGGGTGAG` the E-score was 0.216.
`CGTCGATC` has an E-score of 0.11.
With `AAGTCAAG` the E-score was -0.198.
For `AAACGGAT`, the E-score was -0.00016.
`TTAAAAAA` has an E-score of -0.216.

Block 5 — target: UBE2H UBC core domain (UniProt P62256); technique: yeast two-hybrid; matrix: yeast; notes: mostly zero background; baseline: not given; reading: higher = stronger interaction
Chain of UniProt P62256 (whole entry, looked up): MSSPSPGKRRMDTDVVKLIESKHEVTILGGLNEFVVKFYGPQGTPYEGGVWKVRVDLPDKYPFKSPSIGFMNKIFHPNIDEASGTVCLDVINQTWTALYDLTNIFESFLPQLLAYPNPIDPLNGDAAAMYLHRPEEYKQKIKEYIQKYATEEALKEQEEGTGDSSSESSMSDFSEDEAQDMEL
B1: MSL2 RING domain (UniProt Q9HCI7); chain LLPYFRQSLSCCVCGHLLQDPIAPTNSTCQHYVCKTCKGKKMMMKPSCSWCKDYEQFEENKQ
B2: PEX2 RING domain (UniProt P28328); chain DNTLATSGKECALCGEWPTMPHTIGCEHIFCYFCAKSSFLFDVYFTCPKCGTEVHSLQPLK
B3: ANKIB1 RING domain (UniProt Q9P2G1); chain LSPGDLDTSLCDICMCSISVFEDPVDMPCGHDFCRGCWESFLNLKIQEGEAHNIFCPAYDCFQLVPVDIIE
B4: TRIM15 RING domain (UniProt Q9C019); chain SLKVVHELPACTLCAGPLEDAVTIPCGHTFCRLCLPALSQMGAQSSGKILLCPLCQEEEQAETPMA
B5: RNF149 RING domain (UniProt Q8NC42); chain EKGIDVDAENCAVCIENFKVKDIIRILPCKHIFHRICIDPWLLDHRTCPMCKLDVIKALGYW
B6: RNF32 RING domain (UniProt Q9H0A6); chain SLLQGDSVQPCPICKEEFELRPQVLLSCSHVFHKACLQAFEKFTNKKTCPLCRKNQYQTRVIH
B7: RNF175 RING domain (UniProt Q8N4F7); chain LPTRSLSDNICAVCGQKIIVELDEEGLIENTYQLSCNHVFHEFCIRGWCIVGKKQTCPYCKEKVDLKRMIS
B8: RNF150 RING domain (UniProt Q9ULK6); chain DKETESDFDNCAVCIEGYKPNDVVRILPCRHLFHKSCVDPWLLDHRTCPMCKMNILKALGIP
B9: UBE4A RING domain (UniProt Q14139); chain LQQQEEETYADACDEFLDPIMSTLMCDPVVLPSSRVTVDRSTIARHLLSDQTDPFNRSPLTMDQIRPNTELKEKIQRWLAERKQQKEQLE
B10: RNF112 RING domain (UniProt Q9ULX5); chain QPMAPRELPTCSICLERLRDPISLDCGHDFCIRCFSTHRLPGCEPPCCPECRKICKQKRGLR
B11: RNF43 RING domain (UniProt Q68DV7); chain SGSSCSSAPVCAICLEEFSEGQELRVISCLHEFHRNCVDPWLHQHRTCPLCMFNITEGDSFS
B12: RFPL2 RING domain (UniProt O75678); chain MAALFQEASSCPVCSDYLEKPMSLECGCAVCLKCINSLQKEPHGEDLLCCCSSMVSRKNKIRR
B13: RNF14 RING domain (UniProt Q9UBS8); chain IKCFNSKLFLCSICFCEKLGSECMYFLECRHVYCKACLKDYFEIQIRDGQVQCLNCPEPKCPSVATPGQVK
Under “lacZ reporter activity”, `B1 (MSL2 RING domain)` is recorded as 0.
For `B2 (PEX2 RING domain)`, “lacZ reporter activity” read 0.
Under “lacZ reporter activity”, `B3 (ANKIB1 RING domain)` is recorded as 0.
For `B4 (TRIM15 RING domain)`, “lacZ reporter activity” read 0.
`B5 (RNF149 RING domain)` — result for “lacZ reporter activity”: 0.
`B6 (RNF32 RING domain)`: “lacZ reporter activity” 0.
`B7 (RNF175 RING domain)` — result for “lacZ reporter activity”: 0.
`B8 (RNF150 RING domain)` — result for “lacZ reporter activity”: 0.
For `B9 (UBE4A RING domain)`, “lacZ reporter activity” read 0.
Under “lacZ reporter activity”, `B10 (RNF112 RING domain)` is recorded as 0.
`B11 (RNF43 RING domain)`: “lacZ reporter activity” 0.
`LKQVSIRENCCSLCCDEVADTQLKPCGHSDLCMDCALQLETCPLCRKEIVSRIRQI (RSPRY1 RING domain (UniProt Q96DX4))` — result for “lacZ reporter activity”: 0.
Under “lacZ reporter activity”, `KIKDLNEHIVCCLCAGYFVDATTITECLHTFCKSCIVKYLQTSKYCPMCNIKIHETQPLL (PCGF1 RING domain (UniProt Q9BSM1))` is recorded as 0.
For `B12 (RFPL2 RING domain)`, “lacZ reporter activity” read 0.
For `B13 (RNF14 RING domain)`, “lacZ reporter activity” read 0.

Block 6 — technique: DHFR PCA, deep sequencing; matrix: yeast; added: (+)-ABA 200 µM; baseline: wild-type fitted maximum; reading: higher = stronger binding
Target: ABI1, truncated, D143A, DHFR fusion (Arabidopsis thaliana)
Notes: methotrexate growth selection, single substitutions
Starting sequence: PYL1, truncated, DHFR fusion (Arabidopsis thaliana); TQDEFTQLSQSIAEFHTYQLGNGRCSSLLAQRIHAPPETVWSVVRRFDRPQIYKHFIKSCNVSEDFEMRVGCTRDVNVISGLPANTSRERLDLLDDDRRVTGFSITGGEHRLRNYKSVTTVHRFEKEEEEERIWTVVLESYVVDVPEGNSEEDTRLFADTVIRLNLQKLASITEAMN
`S104M`: “relative binding score” 46%.
For `C60K`, “relative binding score” read -27.7%.
Under “relative binding score”, `A30F` is recorded as 104%.
Under “relative binding score”, `T119N` is recorded as 20.9%.
`K126M` — result for “relative binding score”: 105%.
For `H16N`, “relative binding score” read 15.5%.
`I57F` — result for “relative binding score”: 18.5%.
`E127T` — result for “relative binding score”: 100%.
`M176N`: “relative binding score” 96.2%.
Under “relative binding score”, `R45T` is recorded as 39.5%.
For `T39V`, “relative binding score” read 101%.
For `E4R`, “relative binding score” read 84.8%.
Under “relative binding score”, `T1M` is recorded as 99%.
Under “relative binding score”, `H34A` is recorded as 97.4%.
`S42A`: “relative binding score” 98.2%.
`Y18A`: “relative binding score” 90.6%.
For `V142A`, “relative binding score” read 89.9%.
Under “relative binding score”, `E139P` is recorded as 6.2%.
`H122A`: “relative binding score” 47.8%.
For `H110T`, “relative binding score” read 47.5%.
`A84L` — result for “relative binding score”: 10.4%.
For `L28I`, “relative binding score” read 96.6%.
Under “relative binding score”, `E152G` is recorded as 93.2%.
`L112Y` — result for “relative binding score”: 33.4%.
Under “relative binding score”, `F56R` is recorded as 0.375%.
